Measured values of several laboratories.
Protocols differ between the studies behind these lines. ± marks the error that the study gave.

`COc1cc(O)cc2c1-c1ccc(O)c(OC)c1CC2`: cytokine release “decreased” (BV-2; ELISA, refers to: MCP-1; concentration not given, pretreatment, together with: LPS).
For `COc1cc(CNC(=O)C[C@H](C)CCC=C(C)C)ccc1OCc1cn(-c2cccc([N+](=O)[O-])c2)nn1`, the growth percent was 73.3% (RPMI-8226 leukaemia cells; SRB; 10 µM, 48 h).
`CC(=O)N[C@H](C(=O)N[C@H](C(=O)N[C@@H](CCCNC(=N)N)C(=O)N1Cc2ccccc2C[C@H]1C(=O)N[C@@H](Cc1ccccc1)C(N)=O)C1CCCCC1)C(C)C` gave a cytokine level of < 2.8 pg/mL (MBP-specific BC-3 T cells; Bio-Plex multiplex, refers to: GM-CSF; 200 µg/mL, 24 h, together with: MBP87-99 antigen).
For `COc1ccc([C@@H]2CC(=O)c3c(O)cc(O[C@@H]4O[C@H](CO[C@@H]5O[C@@H](C)[C@H](O)[C@@H](O)[C@H]5O)[C@@H](O)[C@H](O)[C@H]4O)cc3O2)cc1O`, the viability was 49.9% (A549; cell growth or viability, MTS; 150 µg/mL, 24 h).
`COc1ccc2c(c1)/C(=N\Nc1nnc3n1N=C(c1ccccc1)CS3)C(=O)N2` has an inhibition of 17% (IGROV-1; cell growth or viability, SRB; 10 µM).
For `CC(C)Cc1ccc(C(C)C(=O)[O][Pt]([NH2])([NH2])([Cl])([Cl])[O]C(=O)CCCc2ccccc2)cc1` (stereo not drawn), the resistance factor was 1.9 (C13 and 2008; cytotoxicity, MTT; baseline: IC50 C13 over IC50 2008).
With `COc1cc(CNC(=O)C[C@H](C)CCC=C(C)C)ccc1OCc1cn(-c2ccccc2F)nn1` the growth percent was 78.5% (SK-MEL-2 melanoma cells; SRB; 10 µM, 48 h).
For `COc1ccc([C@@H]2CC(=O)c3c(O)cc(O[C@@H]4O[C@H](CO[C@@H]5O[C@@H](C)[C@H](O)[C@@H](O)[C@H]5O)[C@@H](O[C@H]5O[C@H](CO)[C@@H](O)[C@H](O)[C@H]5O)[C@H](O)[C@H]4O)cc3O2)cc1O`, the invasion was 26 ± 3.13% (A549; Matrigel Transwell invasion; 150 µg/mL, 24 h).
`COc1cc(CNC(=O)C[C@H](C)CCC=C(C)C)ccc1OCc1cn(-c2ccccc2[N+](=O)[O-])nn1` has a growth percent of 67% (SF-539 CNS cancer cells; SRB; 10 µM, 48 h).
Under “late apoptotic cells”, `O=C1NCC(Cc2ccccc2)N(CC2CCCN2CC(CC2CCCCC2)N2CC(Cc3ccc(O)cc3)N(CCc3ccccc3)C(=O)C2=O)C1=O` (stereo not drawn) is recorded as 27% (WM 266-4; annexin V flow cytometry; 100 µM, 48 h, together with: Z-VAD-FMK 10 µM).
For `COc1cc(CNC(=O)C[C@H](C)CCC=C(C)C)ccc1OCc1cn(-c2cccc(C(F)(F)F)c2)nn1`, the growth percent was 16.4% (SF-539 CNS cancer cells; SRB; 10 µM, 48 h).
The resistance factor of `CC(=O)Oc1ccccc1C(=O)[O][Pt]([NH2])([NH2])([Cl])([Cl])[O]C(=O)CCCc1ccccc1` is reported as 1.5 (C13 and 2008; cytotoxicity, MTT; baseline: IC50 C13 over IC50 2008).
Under “fold loss of activity”, `Cn1nnc2c(C#N)ncn2c1=O` is recorded as 10 fold (U-87 MG lacking MGMT; cell viability, Alamar Blue; concentration not given, 7 days; baseline: temozolomide).
`COc1cc(CNC(=O)C[C@H](C)CCC=C(C)C)ccc1OCc1cn(-c2ccc([N+](=O)[O-])cc2)nn1` has a growth percent of 73.1% (RPMI-8226 leukaemia cells; SRB; 10 µM, 48 h).
`O=C(CCCCC1SCC2NC(=O)NC21)NCCCCC1CNC(=O)C(=O)N1CC1CCCN1CC(CC1CCCCC1)N1CC(Cc2ccc(O)cc2)N(CCc2ccccc2)C(=O)C1=O` (stereo not drawn) — result for “lamin A/C cleavage”: “no effect” (WM 266-4; western blot, refers to: cleaved lamin A/C; 100 µM, 24 h).
For `COc1cccc2c1C(=O)c1c(O)c3c(c(O)c1C2=O)C[C@@](O)(C(=O)CO)C[C@@H]3O[C@H]1C[C@H](N)[C@H](O)[C@H](C)O1`, “intracellular ROS level” read “increased” (human dermal fibroblasts; DCFDA fluorescence; concentration not given, 4 h; baseline: DMSO).
The inhibition of `COc1cc(/C=C/C(=O)O)ccc1O` is reported as 75.6% (BV-2; NO release, inhibitor, Griess; 10 µM, LPS-stimulated).
`CC(=O)OC[C@H]1O[C@@H](Sc2sc(C(=O)c3ccc(Br)cc3)c(N)c2-c2nc3ccccc3s2)[C@H](OC(C)=O)[C@@H](OC(C)=O)[C@@H]1OC(C)=O` gave a growth of 103% (BT-549; SRB; 10 µM, 48 h; baseline: untreated).
With `O=C1Nc2ccc(Cl)cc2C1=Cc1c(Cl)[nH]c2c1ccc1ccccc12` the TGI was 11.2 µM (melanoma subpanel of NCI-60; 48 h).
The apoptotic cells of `Cc1ccc(CN2C(=O)/C(=N\c3ccc(Cl)cc3Br)c3ccccc32)cc1` is reported as 44.2% (B16 co-cultured with treated M2 macrophages; concentration not given).
`COc1cc(CNC(=O)C[C@H](C)CCC=C(C)C)ccc1OCc1cn(-c2cccc(Cl)c2)nn1` has a growth percent of 73.1% (SF-539 CNS cancer cells; SRB; 10 µM, 48 h).
`C[N+]1(CC(=O)OC2CCCCCCCCCCC2)CCCCC1` gave an ED90 of 15.7 µM (LNCaP expressing AR-V7; cell viability, CellTiter Blue; 96 h).
`CC(=O)OC[C@H]1O[C@@H](Sc2sc(C(=O)c3ccc(C)cc3)c(N)c2-c2nc3ccccc3s2)[C@H](OC(C)=O)[C@@H](OC(C)=O)[C@H]1OC(C)=O` has a growth of 98.6% (SK-MEL-2; SRB; 10 µM, 48 h; baseline: untreated).
The dead cells of `COc1cc(C(=O)c2[nH]c(N)nc2-c2cccs2)cc(OC)c1OC` is reported as 42% (HeLa cells; propidium iodide staining; 75 nM, 24 h).
`CC[C@@]12CCc3[nH]c4ccccc4c3CCN(C[C@H]3O[C@H]31)C2` has an inhibition of 65.3 ± 2.1% (BV-2; NO production; 12 µM, 1 h, 24 h stimulation, together with: LPS 800 ng/mL; baseline: LPS control).
`COc1ccc(OC)c(Nc2nc(NCCCO)c3ccccc3n2)c1`: “cells without foci” 57.6 ± 0.5% (BCR-ABL1+ BRCA1-deficient 32Dcl3; refers to: GFP-RAD52 foci; 2.5 µM, together with: cisplatin).
`COc1ccc2nc(Cl)c(-c3nc4cc(Cl)c(Cl)cc4[nH]3)cc2c1` gave an IC50 of > 100 µM (L02; cell growth or viability, MTT; 48 h).
The growth percent of `COc1cc(CNC(=O)C[C@H](C)CCC=C(C)C)ccc1OCc1cn(-c2ccc(Cl)c(Cl)c2)nn1` is reported as 93.7% (SK-MEL-2 melanoma cells; SRB; 10 µM, 48 h).
`O=Cc1c(O)ccc2ccccc12`: “log2 fold change” -6.24 (HUVEC; RNA sequencing, refers to: DEPP1; 75 µM, 24 h; baseline: DMSO).
`CN1CCN(C(=O)N(CCCCCCC(=O)NO)c2ccc(-c3ccc4cnn(C)c4c3)cc2)CC1` gave a sub-G1 cells of 26.6 ± 1.8% (MM1.S; flow cytometry, propidium iodide; 1000 nM, 24 h).
`COc1cc(CNC(=O)C[C@H](C)CCC=C(C)C)ccc1O` has a growth percent of 102% (SK-MEL-2 melanoma cells; SRB; 10 µM, 48 h).
`CC(Cc1ccc(Cl)cc1)=C(c1ccc(Cl)cc1)c1ccc(OCCN(C)C)cc1` has a GI50 of 4.72 µM (Hs-578T; cell growth or viability, SRB).
`COC(=O)c1ccccc1-c1c2ccc(=O)cc-2oc2cc(OCCCCC[P+](c3cc(C)cc(C)c3)(c3cc(C)cc(C)c3)c3cc(C)cc(C)c3)ccc12` has a fluorescence ratio of 0.757 (HeLa cells; confocal microscopy; mitochondria; 100 nM; baseline: MitoTracker Deep Red).
Under anandamide uptake, `O=C(Nc1ccccc1)c1ccc(Nc2nnc(-c3ccc(O)cc3)c3ccccc23)cc1` is recorded as “no effect” (FAAH-1 knock-out mouse cortical neurons; 10 µM, 3 h, together with: [3H]-anandamide).
The TGI of `CC/C=C\C/C=C\C/C=C\C/C=C\C/C=C\C/C=C\CCC(=O)Nc1ccn(C2OC(CO)C(O)C2(F)F)c(=O)n1` (stereo not drawn) is reported as 0.538 µM (SF-539; NCI60 screen).
For `COC(=O)c1ccccc1-c1c2ccc(=O)cc-2oc2cc(OCCCCC[P+](c3ccccc3)(c3ccccc3)c3ccccc3)ccc12`, the Pearson coefficient was 0.568 (HeLa cells; confocal microscopy; together with: MitoTracker Deep Red).
`CO[C@H]1N(OC)c2ccccc2[C@@]12CN=C(Nc1cc(C(F)(F)F)cc(C(F)(F)F)c1)S2` (relative stereo) — result for “sub-G1 phase cells”: 48.9 ± 7.21% (HCT-116; PI flow cytometry; 40 µM, 48 h).
`N#Cc1cccc(-c2ccc(=O)n(Cc3cccc(-c4ncc(OCC5CCN(CC(=O)N6CCN(c7ccc8c(c7)C(=O)N(C7CCC(=O)NC7=O)C8=O)CC6)CC5)cn4)c3)n2)c1` (stereo not drawn) has a c-MET degradation of > 80% (EBC-1; degrader, label-free proteomics; 10 nM, 48 h).
With `COc1ccc(NC(=O)CCc2nc3cc(Cl)ccc3[nH]c2=O)cc1` the BAX level was 4.34 fold (unspecified cells; concentration not given; baseline: untreated control).

Some of these lines once more:
With `O=C1Nc2ccc(Cl)cc2C1=Cc1c(Cl)[nH]c2c1ccc1ccccc12` the TGI was 11.2 µM (melanoma subpanel of NCI-60; 48 h).
The apoptotic cells of `Cc1ccc(CN2C(=O)/C(=N\c3ccc(Cl)cc3Br)c3ccccc32)cc1` is reported as 44.2% (B16 co-cultured with treated M2 macrophages; concentration not given).
`COc1cc(CNC(=O)C[C@H](C)CCC=C(C)C)ccc1OCc1cn(-c2cccc(Cl)c2)nn1` has a growth percent of 73.1% (SF-539 CNS cancer cells; SRB; 10 µM, 48 h).
`C[N+]1(CC(=O)OC2CCCCCCCCCCC2)CCCCC1` gave an ED90 of 15.7 µM (LNCaP expressing AR-V7; cell viability, CellTiter Blue; 96 h).
`CC(=O)OC[C@H]1O[C@@H](Sc2sc(C(=O)c3ccc(C)cc3)c(N)c2-c2nc3ccccc3s2)[C@H](OC(C)=O)[C@@H](OC(C)=O)[C@H]1OC(C)=O` has a growth of 98.6% (SK-MEL-2; SRB; 10 µM, 48 h; baseline: untreated).
